Measurements of several laboratories.
Protocols differ between the studies behind these lines.
Organism: Pseudomonas aeruginosa

SMILES = CC(=O)N[C@@H](CC(C)C)C(=O)N[C@H]1CSSC[C@@H](C(=O)N2CCC[C@H]2C(N)=O)NC(=O)[C@H](CCCCN)NC(=O)[C@H](C(C)C)NC(=O)[C@H](CCCCN)NC(=O)CNC(=O)[C@H](CC(C)C)NC(=O)[C@H](Cc2ccccc2)NC(=O)[C@H](CCCCN)NC(=O)[C@H](CC(C)C)NC(=O)[C@H](CCC(=O)O)NC(=O)[C@H](Cc2ccccc2)NC(=O)[C@H](CCCNC(=N)N)NC(=O)[C@H](CCCCN)NC(=O)[C@H](CC(C)C)NC(=O)[C@H](CC(=O)O)NC(=O)[C@@H]2CCCN2C(=O)[C@H](CCCCN)NC(=O)[C@H](C(C)C)NC(=O)[C@H](CCCCN)NC(=O)[C@H](CCCCN)NC(=O)[C@H](CCCCN)NC1=O; assay = broth dilution; system = CGMCC strain; setting = 24 h; MIC = 10 to 20 µM
SMILES = CCn1c(-c2ccc(-c3ccc(F)cc3)cc2)c(-c2ccc(-c3ccc(F)cc3)cc2)n(CC)c1=[Se]; assay = broth microdilution; system = carbapenem-resistant BAA-2108; setting = 24 h; MIC = > 40 µM
SMILES = CC[C@H](C)[C@H](NC(=O)[C@@H](CCCNC(=N)N)NC(=O)[C@H](CCCNC(=N)N)NC(=O)[C@H](Cc1c[nH]cn1)NC(=O)[C@H](Cc1c[nH]c2ccccc12)NC(=O)[C@H](CCCNC(=N)N)NC(=O)[C@@H]1CCCN1C(=O)[C@H](CCCNC(=N)N)NC(=O)[C@@H]1CCCN1C(=O)[C@H](CC(C)C)NC(=O)[C@H](Cc1ccc(O)cc1)NC(=O)[C@@H]1CCCN1C(=O)[C@@H]1CCCN1C(=O)[C@H](CCCCN)NC(=O)[C@H](CC(=O)O)NC(=O)[C@@H](N)C(C)C)C(=O)N[C@@H](Cc1ccc(O)cc1)C(=O)N[C@@H](CC(N)=O)C(=O)N[C@H](CCCNC(=N)N)C(N)=O; assay = broth microdilution; system = DSM 1117; setting = 18 h, 37 °C, 25% MHB2; MIC = 128 µg/mL
SMILES = CCCCCCCC(=O)N[C@@H](CCN)C(=O)N[C@H](C(=O)N[C@@H](CCN)C(=O)N[C@H]1CCNC(=O)[C@H]([C@@H](C)O)NC(=O)[C@H](CCN)NC(=O)[C@H](CCN)NC(=O)[C@H](CC(C)C)NC(=O)[C@@H](Cc2ccc(Br)cc2)NC(=O)[C@H](CCN)NC1=O)[C@@H](C)O; assay = broth microdilution; system = PAO1, colistin-susceptible; MIC = 0.125 to 0.25 µg/mL
SMILES = CC[C@H](C)[C@H](NC(=O)[C@@H](CCCNC(=N)N)NC(=O)[C@H](CCCNC(=N)N)NC(=O)[C@@H]1CCCN1C(=O)[C@@H]1CCCN1C(=O)[C@H](CCCNC(=N)N)NC(=O)[C@@H]1CCCN1C(=O)[C@H](CCCNC(=N)N)NC(=O)[C@@H]1CCCN1C(=O)[C@H](CC(C)C)NC(=O)[C@H](Cc1ccc(O)cc1)NC(=O)[C@@H]1CCCN1C(=O)[C@H](Cc1ccc(O)cc1)NC(=O)[C@H](CCCCN)NC(=O)[C@H](CC(=O)O)NC(=O)[C@@H](N)C(C)C)C(=O)N[C@@H](Cc1ccc(O)cc1)C(=O)N[C@@H](CC(N)=O)C(=O)N[C@H](CCCNC(=N)N)C(N)=O; assay = broth microdilution; system = DSM 1117; setting = 18 h, 37 °C, 25% MHB2; MIC = 128 µg/mL
SMILES = CC(C)C[C@@H]1NC(=O)[C@@H](CC(C)C)NC(=O)[C@H](CCN)NC(=O)[C@@H](NC(=O)[C@H](CCN)NC(=O)[C@@H](NC(=O)CCCCN=[N+]=[N-])[C@@H](C)O)CCNC(=O)[C@H]([C@@H](C)O)NC(=O)[C@H](CCN)NC(=O)[C@H](CCN)NC1=O; assay = broth microdilution; system = ATCC 27736, cation-adjusted Mueller-Hinton broth; MIC = 8 µM
SMILES = CC[C@H](C)[C@H](NC(=O)CN)C(=O)NCC(=O)N[C@@H](C)C(=O)N[C@H](C(=O)N[C@@H](CC(C)C)C(=O)N[C@@H](CCCCN)C(=O)N[C@H](C(=O)N[C@@H](CC(C)C)C(=O)N[C@H](C(=O)N[C@H](C(=O)NCC(=O)N[C@@H](CC(C)C)C(=O)N1CCC[C@H]1C(=O)N[C@@H](C)C(=O)N[C@@H](CC(C)C)C(=O)N[C@H](C(=O)N[C@@H](CO)C(=O)N[C@@H](Cc1c[nH]c2ccccc12)C(=O)N[C@H](C(=O)N[C@@H](CCCCN)C(=O)N[C@@H](CCCNC(=N)N)C(=O)N[C@@H](CCCCN)C(=O)N[C@@H](CCCNC(=N)N)C(=O)N[C@@H](CCC(N)=O)C(=O)N[C@@H](CCC(N)=O)C(N)=O)[C@@H](C)CC)[C@@H](C)CC)[C@@H](C)O)[C@@H](C)O)C(C)C)C(C)C; assay = broth microdilution; system = 4891 resistant; setting = 18 h, 37 °C; MIC = 4 µM
SMILES = CN[C@H](CC(C)C)C(=O)N[C@H]1C(=O)N[C@@H](CC(N)=O)C(=O)N[C@H]2C(=O)N[C@H]3C(=O)N[C@H](C(=O)N[C@H](C(=O)N[C@@H](CCCNC(=N)N)C(N)=O)c4cc(O)cc(O)c4-c4cc3ccc4O)[C@H](O)c3ccc(c(Cl)c3)Oc3cc2cc(c3O[C@@H]2O[C@H](CO)[C@@H](O)[C@H](O)[C@H]2O[C@H]2C[C@](C)(NCc3ccc(OCc4cn(CC(=O)N[C@H](C(=O)N[C@@H](CCN)C(=O)N[C@H]5CCNC(=O)[C@H]([C@@H](C)O)NC(=O)[C@H](CCN)NC(=O)[C@H](CCN)NC(=O)[C@H](CC(C)C)NC(=O)[C@@H](CC(C)C)NC(=O)[C@H](CCN)NC5=O)[C@@H](C)O)nn4)c(OC)c3)[C@H](O)[C@H](C)O2)Oc2ccc(cc2Cl)[C@H]1O; assay = broth microdilution; system = ATCC 35218, cation-adjusted Mueller-Hinton broth; MIC = 3 µM
SMILES = CC[C@H](C)[C@H](NC(=O)[C@@H](CCCNC(=N)N)NC(=O)[C@H](CCCNC(=N)N)NC(=O)[C@@H]1CCCN1C(=O)[C@@H]1CCCN1C(=O)[C@H](CCCNC(=N)N)NC(=O)[C@@H]1CCCN1C(=O)[C@H](CCCNC(=N)N)NC(=O)[C@@H]1CCCN1C(=O)[C@H](CC(C)C)NC(=O)[C@H](Cc1ccccc1)NC(=O)[C@@H]1CCCN1C(=O)[C@@H]1CCCN1C(=O)[C@H](CCCCN)NC(=O)[C@H](CC(=O)O)NC(=O)[C@@H](N)C(C)C)C(=O)N[C@@H](Cc1ccc(O)cc1)C(=O)N[C@@H](CC(N)=O)C(=O)N[C@H](CCCNC(=N)N)C(N)=O; assay = broth microdilution; system = DSM 1117; setting = 18 h, 37 °C, 25% MHB2; MIC = 128 µg/mL
SMILES = CC(C)C[C@@H]1NC(=O)[C@@H](CC(C)C)NC(=O)[C@H](CCN)NC(=O)[C@@H](NC(=O)[C@H](CCN)NC(=O)[C@@H](NC(=O)CCOCCOCCOCCN=[N+]=[N-])[C@@H](C)O)CCNC(=O)[C@H]([C@@H](C)O)NC(=O)[C@H](CCN)NC(=O)[C@H](CCN)NC1=O; assay = broth microdilution; system = ATCC 25922, cation-adjusted Mueller-Hinton broth; MIC = 111 µM
SMILES = CC(=O)N[C@H](Cc1ccc(Br)cc1)C(=O)N[C@@H](CCN)C(=O)N[C@H](C(=O)N[C@@H](CCN)C(=O)N[C@H]1CCNC(=O)[C@H]([C@@H](C)O)NC(=O)[C@H](CCN)NC(=O)[C@H](CCN)NC(=O)[C@H](CC(C)C)NC(=O)[C@@H](Cc2ccccc2)NC(=O)[C@H](CCN)NC1=O)[C@@H](C)O; assay = broth microdilution; system = colistin-resistant isolates; MIC = 16 to 32 µg/mL
SMILES = CC(C)C[C@@H]1NC(=O)[C@@H](CC(C)C)NC(=O)[C@H](CCN)NC(=O)[C@@H](NC(=O)[C@H](CCN)NC(=O)[C@@H](NC(=O)CN=[N+]=[N-])[C@@H](C)O)CCNC(=O)[C@H]([C@@H](C)O)NC(=O)[C@H](CCN)NC(=O)[C@H](CCN)NC1=O; assay = broth microdilution; system = ATCC 27736, cation-adjusted Mueller-Hinton broth; MIC = 32 µM
SMILES = CC(C)C[C@H](NC(=O)[C@H](CCCCN)NC(=O)C1CCCC=CCCC(NC(=O)[C@H](CCCCN)NC(=O)[C@@H](N)CC(C)C)C(=O)N[C@@H](CCCCN)C(=O)NC2CCC=CCCCC(NC(=O)[C@H](CCCCN)NC(=O)CNC(=O)[C@H]3CCCN3C(=O)[C@H](CCCCN)NC2=O)C(=O)N[C@@H](CCCCN)C(=O)N1)C(N)=O (stereo partly drawn); assay = broth microdilution; system = ATCC 9027, Mueller-Hinton broth; setting = 18 h, 37 °C; MIC = 64 µM
SMILES = CN[C@H](CC(C)C)C(=O)N[C@H]1C(=O)N[C@@H](CC(N)=O)C(=O)N[C@H]2C(=O)N[C@H]3C(=O)N[C@H](C(=O)N[C@H](C(=O)O)c4cc(O)cc(O)c4-c4cc3ccc4O)[C@H](O)c3ccc(c(Cl)c3)Oc3cc2cc(c3O[C@@H]2O[C@H](CO)[C@@H](O)[C@H](O)[C@H]2O[C@H]2C[C@](C)(NCc3ccc(OCc4cn(CCCCC(=O)N[C@H](C(=O)N[C@@H](CCN)C(=O)N[C@H]5CCNC(=O)[C@H]([C@@H](C)O)NC(=O)[C@H](CCN)NC(=O)[C@H](CCN)NC(=O)[C@H](CC(C)C)NC(=O)[C@@H](CC(C)C)NC(=O)[C@H](CCN)NC5=O)[C@@H](C)O)nn4)c(OC)c3)[C@H](O)[C@H](C)O2)Oc2ccc(cc2Cl)[C@H]1O; assay = broth microdilution; system = ATCC 27853, cation-adjusted Mueller-Hinton broth; MIC = 6 µM
SMILES = CC[C@H](C)[C@H](NC(=O)[C@H](C)NC(=O)[C@@H](NC(=O)[C@H](CC(=O)O)NC(=O)[C@H](CCCCN)NC(=O)[C@H](CO)NC(=O)[C@@H](NC(=O)[C@H](CC(N)=O)NC(=O)[C@H](C)NC(=O)[C@@H](NC(=O)[C@H](CCC(=O)O)NC(=O)[C@H](CCCCN)NC(=O)[C@@H](NC(=O)[C@@H](NC(=O)[C@H](Cc1c[nH]cn1)NC(=O)[C@H](CCCCN)NC(=O)[C@@H](NC(=O)[C@H](CCCCN)NC(=O)[C@H](CCCCN)NC(=O)[C@@H](NC(=O)[C@H](CC(C)C)NC(=O)[C@H](CCCCN)NC(=O)[C@H](CC(N)=O)NC(=O)[C@H](Cc1ccccc1)NC(=O)[C@H](CCCNC(=N)N)NC(=O)[C@H](CCCCN)NC(=O)[C@H](CCCNC(=N)N)NC(=O)[C@H](Cc1ccccc1)NC(=O)CN)C(C)C)C(C)C)[C@@H](C)O)[C@@H](C)CC)[C@@H](C)O)C(C)C)C(C)C)C(=O)N[C@H](C(=O)N[C@@H](C)C(=O)NCC(=O)N[C@@H](CO)C(=O)NCC(=O)N[C@H](C(=O)N[C@@H](C)C(=O)N[C@H](C(=O)NCC(=O)N[C@@H](C)C(=O)N[C@@H](C)C(=O)N[C@@H](CCSC)C(N)=O)C(C)C)C(C)C)C(C)C; system = ATCC 27853, CAMHB with 10% mouse serum; MIC = 16 µg/mL

A few entries again:
SMILES = CN[C@H](CC(C)C)C(=O)N[C@H]1C(=O)N[C@@H](CC(N)=O)C(=O)N[C@H]2C(=O)N[C@H]3C(=O)N[C@H](C(=O)N[C@H](C(=O)N[C@@H](CCCNC(=N)N)C(N)=O)c4cc(O)cc(O)c4-c4cc3ccc4O)[C@H](O)c3ccc(c(Cl)c3)Oc3cc2cc(c3O[C@@H]2O[C@H](CO)[C@@H](O)[C@H](O)[C@H]2O[C@H]2C[C@](C)(NCc3ccc(OCc4cn(CC(=O)N[C@H](C(=O)N[C@@H](CCN)C(=O)N[C@H]5CCNC(=O)[C@H]([C@@H](C)O)NC(=O)[C@H](CCN)NC(=O)[C@H](CCN)NC(=O)[C@H](CC(C)C)NC(=O)[C@@H](CC(C)C)NC(=O)[C@H](CCN)NC5=O)[C@@H](C)O)nn4)c(OC)c3)[C@H](O)[C@H](C)O2)Oc2ccc(cc2Cl)[C@H]1O; assay = broth microdilution; system = ATCC 35218, cation-adjusted Mueller-Hinton broth; MIC = 3 µM
SMILES = CC(C)C[C@H](NC(=O)[C@H](CCCCN)NC(=O)C1CCCC=CCCC(NC(=O)[C@H](CCCCN)NC(=O)[C@@H](N)CC(C)C)C(=O)N[C@@H](CCCCN)C(=O)NC2CCC=CCCCC(NC(=O)[C@H](CCCCN)NC(=O)CNC(=O)[C@H]3CCCN3C(=O)[C@H](CCCCN)NC2=O)C(=O)N[C@@H](CCCCN)C(=O)N1)C(N)=O (stereo partly drawn); assay = broth microdilution; system = ATCC 9027, Mueller-Hinton broth; setting = 18 h, 37 °C; MIC = 64 µM
